Experimental data pooled from the literature.
Compare with care: the assays were run in different laboratories. “And” joins repeats or separate records; there may be more than shown. ± gives the spread as reported.
GLP1R: Glucagon-like peptide 1 receptor (GLP1R, Homo sapiens, UniProt P43220)
Sequence of UniProt P48146 (whole entry, looked up): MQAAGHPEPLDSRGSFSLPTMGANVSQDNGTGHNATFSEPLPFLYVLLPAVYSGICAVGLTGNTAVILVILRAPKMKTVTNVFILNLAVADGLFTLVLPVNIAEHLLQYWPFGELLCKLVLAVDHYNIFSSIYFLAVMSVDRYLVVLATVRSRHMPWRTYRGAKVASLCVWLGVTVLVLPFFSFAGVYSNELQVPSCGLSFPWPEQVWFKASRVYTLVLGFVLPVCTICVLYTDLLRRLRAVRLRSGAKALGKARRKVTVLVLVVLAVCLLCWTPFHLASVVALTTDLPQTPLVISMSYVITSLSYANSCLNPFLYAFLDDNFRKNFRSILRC
Sequence of UniProt P21333 (whole entry, looked up): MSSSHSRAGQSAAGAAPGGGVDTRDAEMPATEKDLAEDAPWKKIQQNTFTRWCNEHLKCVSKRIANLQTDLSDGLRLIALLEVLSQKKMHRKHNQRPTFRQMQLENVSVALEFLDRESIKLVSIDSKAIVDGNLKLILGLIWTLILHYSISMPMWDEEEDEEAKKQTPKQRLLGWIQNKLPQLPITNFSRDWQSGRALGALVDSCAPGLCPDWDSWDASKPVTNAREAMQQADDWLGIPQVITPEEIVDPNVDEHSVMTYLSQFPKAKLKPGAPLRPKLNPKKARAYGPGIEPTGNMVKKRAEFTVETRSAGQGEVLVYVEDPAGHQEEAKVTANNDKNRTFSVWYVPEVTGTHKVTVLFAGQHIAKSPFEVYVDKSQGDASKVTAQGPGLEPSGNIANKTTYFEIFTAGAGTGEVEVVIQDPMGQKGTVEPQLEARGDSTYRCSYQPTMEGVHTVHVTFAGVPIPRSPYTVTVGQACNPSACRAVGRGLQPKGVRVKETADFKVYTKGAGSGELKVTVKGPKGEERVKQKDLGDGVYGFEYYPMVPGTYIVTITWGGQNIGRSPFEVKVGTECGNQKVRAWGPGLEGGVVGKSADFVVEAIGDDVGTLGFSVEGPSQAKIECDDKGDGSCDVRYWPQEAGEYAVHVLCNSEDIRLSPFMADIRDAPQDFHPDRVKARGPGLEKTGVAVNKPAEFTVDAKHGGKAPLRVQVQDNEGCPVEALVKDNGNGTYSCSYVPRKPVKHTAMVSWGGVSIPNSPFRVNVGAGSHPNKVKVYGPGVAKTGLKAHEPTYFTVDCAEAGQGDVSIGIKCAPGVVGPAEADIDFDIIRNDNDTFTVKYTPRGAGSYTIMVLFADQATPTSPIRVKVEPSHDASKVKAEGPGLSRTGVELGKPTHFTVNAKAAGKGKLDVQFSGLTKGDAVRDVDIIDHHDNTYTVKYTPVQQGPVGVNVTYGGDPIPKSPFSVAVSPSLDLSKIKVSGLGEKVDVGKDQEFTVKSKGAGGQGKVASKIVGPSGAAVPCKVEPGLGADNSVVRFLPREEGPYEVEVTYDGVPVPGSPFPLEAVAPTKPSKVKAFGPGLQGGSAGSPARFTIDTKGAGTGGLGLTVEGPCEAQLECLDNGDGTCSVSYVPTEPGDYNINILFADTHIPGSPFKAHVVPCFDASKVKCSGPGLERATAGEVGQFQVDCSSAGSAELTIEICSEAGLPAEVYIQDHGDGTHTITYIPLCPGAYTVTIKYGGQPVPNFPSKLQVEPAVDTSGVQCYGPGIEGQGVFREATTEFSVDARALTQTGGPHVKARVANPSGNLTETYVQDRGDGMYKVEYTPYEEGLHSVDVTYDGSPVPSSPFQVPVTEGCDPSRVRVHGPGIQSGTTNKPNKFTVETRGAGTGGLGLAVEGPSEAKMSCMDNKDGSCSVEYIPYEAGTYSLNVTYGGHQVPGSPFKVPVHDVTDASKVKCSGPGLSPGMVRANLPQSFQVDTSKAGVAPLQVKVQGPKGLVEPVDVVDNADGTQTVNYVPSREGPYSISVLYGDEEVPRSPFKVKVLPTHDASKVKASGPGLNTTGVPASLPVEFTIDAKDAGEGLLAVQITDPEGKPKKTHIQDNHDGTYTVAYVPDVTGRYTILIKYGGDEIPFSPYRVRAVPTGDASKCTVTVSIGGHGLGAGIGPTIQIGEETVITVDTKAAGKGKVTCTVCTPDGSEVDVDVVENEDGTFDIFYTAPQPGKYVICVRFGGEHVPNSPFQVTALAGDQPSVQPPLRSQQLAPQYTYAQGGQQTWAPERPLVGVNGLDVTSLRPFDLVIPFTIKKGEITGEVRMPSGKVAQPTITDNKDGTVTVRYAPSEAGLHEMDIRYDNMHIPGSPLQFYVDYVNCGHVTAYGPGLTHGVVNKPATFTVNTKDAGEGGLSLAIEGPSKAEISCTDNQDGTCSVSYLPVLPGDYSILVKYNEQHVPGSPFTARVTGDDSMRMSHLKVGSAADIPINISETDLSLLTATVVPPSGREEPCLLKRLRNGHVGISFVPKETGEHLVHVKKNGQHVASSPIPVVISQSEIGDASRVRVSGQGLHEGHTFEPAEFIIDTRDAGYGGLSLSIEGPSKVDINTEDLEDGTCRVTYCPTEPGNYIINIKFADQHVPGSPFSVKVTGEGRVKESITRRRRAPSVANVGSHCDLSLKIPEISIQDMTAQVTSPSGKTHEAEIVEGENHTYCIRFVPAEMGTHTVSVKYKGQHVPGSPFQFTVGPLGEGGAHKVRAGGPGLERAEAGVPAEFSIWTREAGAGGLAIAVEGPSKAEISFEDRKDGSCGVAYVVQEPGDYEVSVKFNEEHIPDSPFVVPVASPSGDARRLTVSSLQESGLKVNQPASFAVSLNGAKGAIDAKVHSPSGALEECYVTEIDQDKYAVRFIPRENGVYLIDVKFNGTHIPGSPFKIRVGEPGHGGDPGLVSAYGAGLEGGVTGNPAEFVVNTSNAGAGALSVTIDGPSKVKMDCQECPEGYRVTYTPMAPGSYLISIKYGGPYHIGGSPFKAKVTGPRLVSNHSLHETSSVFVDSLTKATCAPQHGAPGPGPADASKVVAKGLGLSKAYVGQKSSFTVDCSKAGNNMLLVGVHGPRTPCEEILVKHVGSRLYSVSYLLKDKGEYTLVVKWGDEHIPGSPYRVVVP
Sequence of UniProt O43603 (whole entry, looked up): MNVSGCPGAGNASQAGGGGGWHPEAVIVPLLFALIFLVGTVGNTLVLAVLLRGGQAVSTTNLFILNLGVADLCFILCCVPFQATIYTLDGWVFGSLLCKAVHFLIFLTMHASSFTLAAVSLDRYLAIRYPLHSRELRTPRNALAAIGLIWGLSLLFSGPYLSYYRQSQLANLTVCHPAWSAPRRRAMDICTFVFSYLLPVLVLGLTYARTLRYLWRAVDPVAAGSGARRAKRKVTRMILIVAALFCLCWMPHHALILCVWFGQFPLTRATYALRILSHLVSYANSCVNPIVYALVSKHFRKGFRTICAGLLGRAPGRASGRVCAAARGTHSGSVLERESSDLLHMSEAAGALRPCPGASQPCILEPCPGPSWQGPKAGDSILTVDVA
Sequence of UniProt P25103 (whole entry, looked up): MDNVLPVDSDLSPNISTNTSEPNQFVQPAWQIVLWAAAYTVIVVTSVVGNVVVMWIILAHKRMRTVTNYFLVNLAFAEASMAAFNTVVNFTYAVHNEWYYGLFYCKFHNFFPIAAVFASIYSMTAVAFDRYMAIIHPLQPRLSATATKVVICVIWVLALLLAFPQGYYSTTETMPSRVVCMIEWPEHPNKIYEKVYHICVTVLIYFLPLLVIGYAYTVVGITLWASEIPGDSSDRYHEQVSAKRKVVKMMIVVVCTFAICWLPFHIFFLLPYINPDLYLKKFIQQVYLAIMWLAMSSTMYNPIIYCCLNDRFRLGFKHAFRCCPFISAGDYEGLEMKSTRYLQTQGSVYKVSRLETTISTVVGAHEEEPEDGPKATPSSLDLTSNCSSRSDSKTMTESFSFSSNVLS

SMILES	tested on	assay	test system	setting	scale	quantity	result
CC(C)C[C@H](NC(=O)C[C@H](O)[C@H](CC(C)C)NC(=O)[C@H](Cc1c[nH]cn1)NC(=O)CNC(=O)[C@@H](NC(=O)[C@H](C)NC(=O)[C@H](Cc1c[nH]c2ccccc12)NC(=O)[C@H](CCC(N)=O)NC(=O)[C@@H](Cc1ccccc1)NC(=O)CCNC(=O)CCSc1nnc(NCCC(=O)NCCC(=O)NCCCC[C@H](NC(=O)N[C@@H](CCC(=O)O)C(=O)O)C(=O)O)c2c1CCC1C(CC2)C1COC(=O)NCCNC(=O)CC[C@H](C(=O)O)N1CCN(CC(=O)O)CCN(CC(=O)O)CC1)C(C)C)C(N)=O (stereo partly shown) [gallium-68 labelled]			athymic NMRI nude mice, 22Rv1 xenograft, tumour	intravenous, 2 h, with: bombesin 480 nmol co-injected		tissue uptake	1.34 %ID/g
CN1CCN(c2cc(-c3ccncc3)c(-c3ccc4ccccc4c3)nn2)CC1	Substance-P receptor (TACR1, Homo sapiens, UniProt P25103)	agonist, FLIPR		12.5 µM		activation	-4%
CCCCC/C=C\C/C=C\C/C=C\C/C=C\CCCC(=O)NCCO			mouse, formalin paw test	intraperitoneal, 5 mg/kg, late phase	relative to: vehicle, direction not given	change in licking score	-35%
CC[C@H](C)[C@H](NC(=O)[C@H](Cc1ccccc1)NC(=O)[C@H](CCC(=O)O)NC(=O)[C@H](CCCNC(=N)N)NC(=O)[C@H](C)NC(=O)[C@H](C)NC(=O)[C@H](CCC(N)=O)NC(=O)[C@H](CCCCNc1c(NCCCCCN(O)C(=O)CCC(=O)NCCCCCN(O)C(=O)CCC(=O)NCCCCCN(O)C(C)=O)c(=O)c1=O)NC(=O)[C@H](CCC(=O)O)NC(=O)[C@H](CC(C)C)NC(=O)[C@H](Cc1ccc(O)cc1)NC(=O)[C@H](CO)NC(=O)[C@H](CO)NC(=O)[C@H](CCCCNc1c(NCCCCCN(O)C(=O)CCC(=O)NCCCCCN(O)C(=O)CCC(=O)NCCCCCN(O)C(C)=O)c(=O)c1=O)NC(=O)[C@H](CC(=O)O)NC(=O)[C@H](CO)NC(=O)[C@@H](NC(=O)[C@H](Cc1ccccc1)NC(=O)[C@@H](NC(=O)CNC(=O)[C@H](CCC(=O)O)NC(=O)[C@H](C)NC(=O)CCc1cnc[nH]1)[C@@H](C)O)[C@@H](C)O)C(=O)N[C@@H](C)C(=O)N[C@@H](Cc1c[nH]c2ccccc12)C(=O)N[C@@H](CC(C)C)C(=O)N[C@H](C(=O)N[C@@H](CCCNC(=N)N)C(=O)NCC(=O)N[C@@H](CCCNC(=N)N)C(=O)N[C@@H](CCCCNC(=O)COCCOCCNC(=O)COCCOCCNC(=O)CC[C@H](NC(=O)CCCCCCCCCCCCCCCCC(=O)O)C(=O)O)C(=O)O)C(C)C	GLP1R	cAMP reporter gene, agonist, CRE luciferase	BHK	without Zr, 1% HSA		EC50	1200 pM
C[C@@H](O)[C@@H](CO)NC(=O)[C@@H](CCCNC(=N)N)NC(=O)[C@@H]1CCCN1C(=O)[C@@H]1CSSC[C@H](NC(=O)[C@H](Cc2ccccc2)NC(=O)CN2CCN(CC(=O)O)CCN(CC(=O)O)CCN(CC(=O)O)CC2)C(=O)N[C@@H](Cc2ccc(O)cc2)C(=O)N[C@@H](Cc2ccccc2)C(=O)N[C@@H](CCC(N)=O)C(=O)N[C@@H](CC(N)=O)C(=O)N1 [gallium-68 labelled]			Wistar rat, heart	intravenous, 8 MBq, 60 min, group mean		tissue uptake	0.24 %ID/g
CNC(=O)c1c(C)oc2cc(Oc3ccnc4cc(OCCN5CCOCC5)ccc34)ccc12		response or stable disease ≥4 cycles, RECIST 1.0	patients with advanced solid tumours	dose not given, once daily dosing		disease control rate	27%
CCCCC1(CCCC)CN(c2ccccc2)c2cc(SC)c(OCC(=O)N[C@@H](C(=O)NCC(=O)O)c3ccccc3)cc2S(=O)(=O)C1		refers to: LDL cholesterol	human, serum	20 mg once daily, day 13		serum LDL-C	74 mg/dL
CN1CCN(S(=O)(=O)c2cc([N+](=O)[O-])ccc2N(CCOS(C)(=O)=O)CCOS(C)(=O)=O)CC1			NSG mice, sample CC PDX	intraperitoneal, 25 mg/kg weekly x3		event-free survival	5.5 days
C[C@]12CC[C@H](O)C[C@H]1CC[C@@H]1[C@@H]2CC[C@]2(C)[C@@H](c3ccc(=O)oc3)CC[C@]12O			female nude mouse LCC2 xenograft	1.0 mg/kg, day 9, tamoxifen-resistant		tumour volume	44 mm3 and 68.9 mm3 and 32.2 mm3 and 34.7 mm3 and 37.8 mm3 and 46.6 mm3 and 33.2 mm3
Cc1nc(Nc2ccc(CC(=O)O)cc2)nc(Nc2ccc(F)c(C(F)(F)F)c2)c1C			C57BL/6J mice, high-fat diet	intraperitoneal, 0.3 mg/kg daily, 60% fat diet 12 weeks, dosed last four	relative to: vehicle	fasting blood glucose	decreased
COc1cc(Nc2ncc(F)c(Nc3ccc4c(n3)NC(=O)C(C)(C)O4)n2)cc(OC)c1OC	Galanin receptor type 2 (GALR2, Homo sapiens, UniProt O43603)					IC50	> 10 µM
CCCCCCn1c(O)c(N=NC(=O)c2ccccc2)c2ccccc21		drug discrimination	mouse trained THC 5.6 mg/kg vs vehicle	ip, 30 mg/kg		maximum THC-appropriate responding	77%
Oc1ccc2c3c1O[C@H]1[C@@H](O)CC[C@@]4(O)[C@@H](C2)N(CC2CCC2)CC[C@]314	NPBWR2 (Homo sapiens, UniProt P48146)	receptor activation, TANGO luminescence		concentration not given, unconfirmed screen	relative to: vehicle control	log2 fold change	0.2
C[C@H]1O[C@@H](O[C@H]2CC[C@@]3(C)[C@@H](CC[C@]4(C)[C@@H]3C=C[C@]35OC[C@@]6(CCC(C)(C)C[C@H]63)[C@@H](O)C[C@]54C)[C@]2(C)CO)[C@H](O)[C@@H](O[C@@H]2O[C@H](CO)[C@@H](O)[C@H](O)[C@H]2O)[C@H]1O		refers to: ACC-1	ethanol-fed mice, hepatic SIRT1 knockdown (AAV8-TBG-SIRT1), liver	dose not given, high dose, unit not given	relative to: AAV8-TBG-Null ethanol group	mRNA level	1.09 and 1 and 0.77 and 1.48 and 1.02
O=C1c2ccncc2C(=O)c2c1[nH]c1ccccc21			female monocrotaline PAH rat	dose not given	relative to: vehicle	Fulton index	decreased
c1csc(-c2ccc(-c3cccs3)s2)c1		H&E histology	C57BL/6J diet-induced obese mice	intraperitoneal, 5 mg/kg daily, 14 days		steatosis	27.4%
C[C@]1(CO)Cc2ncn(-c3ccc(C#N)c(Cl)c3)c2C(=O)O1			Chinese subjects	3 mg single dose		urinary potassium excretion 0-24 h	32 mmol
FC(F)(F)c1ccc2c(c1)[C@@H]1CNC[C@H]2C1		intermittent two-bottle choice	Wistar rat, 20% ethanol drinking	subcutaneous, 10 mg/kg, 24 h	relative to: ethanol over total fluid intake	ethanol preference	29 ± 3%
CC[C@@H](C)[C@@H](NC(=O)[C@@H](Cc1ccc(O)cc1)NC(=O)[C@H]1CCCN1C(=O)[C@@H](CCCNC(=N)N)NC(=O)[C@H](N)Cc1c[nH]cn1)C(=O)N[C@H](C)C(=O)N[C@H](Cc1c[nH]cn1)C(=O)N[C@H](CCCNC(=N)N)C(=O)N[C@H](CCCCNC(=O)c1cccc(S(=O)(=O)F)c1)C(=O)N[C@H](Cc1ccc(O)cc1)C(=O)N[C@H](CO)C(=O)N[C@H](Cc1ccccc1)C(N)=O		ex vivo flow cytometry	B16 tumour-bearing mice, tumour-draining lymph node	dose not given		IFN-γ+ CD8+ T cell frequency	4.24% and 6.61% and 4.84% and 7.48% and 3.77%
CC(C)=CCC/C(C)=C/C(=O)O		pH gradient	Escherichia coli inverted membrane vesicles			IC50	> 1000 µM
CCCCCCCCCCCCCCCCCCOCC(COP(=O)([O-])OCC[N+](C)(C)C)OC (stereo not shown)		calcium response, decay phase	N2a, mouse	10 µM, with: BzATP 300 µM		inhibition	63%
CCCCC1CNC2CCc3ccc(OC)cc3C12.Cl (racemic)		RNA sequencing, refers to: ribosomal protein genes	SAMP8 mice, hippocampus	intracerebroventricular, 1.0 µg/µL, 24 h	relative to: vehicle	mRNA level	increased
CSCC[C@@H]1NC(=O)[C@H](Cc2c[nH]c3ccccc23)NC(=O)[C@@H](NC(=O)CCNC(=O)[C@H](CCC(N)=O)NC(=O)[C@@H]2CCCN2C(=O)[C@@H]2CCCN2C(=O)[C@H](CCCNC(=N)N)NC(=O)[C@H](CCCNC(=N)N)NC(=O)[C@H](CCCNC(=N)N)NC(=O)[C@H](CCC(N)=O)NC(=O)[C@H](CCCNC(=N)N)NC(=O)[C@H](CCCNC(=N)N)NC(=O)[C@H](CCCCN)NC(=O)[C@H](CCCCN)NC(=O)[C@H](CCCNC(=N)N)NC(=O)CN)CSSC[C@@H](C(=O)O)NC(=O)[C@H]([C@@H](C)O)NC(=O)CNC(=O)[C@H](CC(C)C)NC(=O)[C@H](Cc2c[nH]cn2)NC(=O)[C@H](CCCNC(=N)N)NC(=O)[C@@H]2CCCN2C(=O)[C@H](CO)NC1=O		immunohistochemistry	NCI-H226 xenograft mouse, tumour tissue	intravenous, 2 mg/kg, day 16		CDC37 staining	0.12 ± 0.014 IOD/area
C[C@H]1CN(c2n[nH]c3nc(N[C@H]4CC[C@H](NS(=O)(=O)CCC(F)(F)F)CC4)ncc23)CCO1	Filamin-A (Homo sapiens, UniProt P21333)	competitor, Kinobeads competition	human cell extract	0.16 µM	relative to: vehicle	relative abundance	1.29
NNc1ccccc1		hydrazine ligation kinetics, absorbance		concentration not given, 40 s, with: 2-formylphenylboronic acid		normalised absorbance	0.907
Cc1cn(-c2cc(NC(=O)c3ccc(C)c(Nc4nccc(-c5cccnc5)n4)c3)cc(C(F)(F)F)c2)cn1			human patients	dose not given, 6 months vs baseline, unit not given	relative to: placebo	ADAS-Cog maze time change	4.7
CC[C@H](C)[C@@H]1NC(=O)[C@@H]2CCCN2C(=O)[C@H](CC(C)C)NC(=O)[C@H](CC(C)C)NC(=O)CNC(=O)[C@@H](NC(=O)[C@@H](NC(=O)[C@H](CC(=O)O)NC(=O)CNC(=O)[C@@H](NC(=O)[C@H](C)NC(=O)CNC(=O)[C@H](CCCCN)NC(=O)[C@H](CC(C)C)NC(=O)[C@H](CC(C)C)NC(=O)[C@H](CCCCN)NC(=O)CNC(=O)[C@@H](NC(=O)[C@@H](N)CC(C)C)C(C)C)C(C)C)C(C)C)CSSC[C@@H](C(=O)O)NC1=O		RNA-seq, refers to: Csf2rb mRNA	mouse traumatic brain injury, frontal cortex and hippocampus	dose not given	relative to: TBI plus compound vs TBI	log2 fold change	-2.77
CC[C@H](C)[C@H](NC(=O)[C@H](Cc1ccccc1)NC(=O)[C@H](CCC(=O)O)NC(=O)[C@H](CCCNC(=N)N)NC(=O)[C@H](C)NC(=O)[C@H](C)NC(=O)[C@H](CCC(N)=O)NC(=O)[C@H](CCCCNc1c(NCCCCCN(O)C(=O)CCC(=O)NCCCCCN(O)C(=O)CCC(=O)NCCCCCN(O)C(C)=O)c(=O)c1=O)NC(=O)[C@H](CCC(=O)O)NC(=O)[C@H](CC(C)C)NC(=O)[C@H](Cc1ccc(O)cc1)NC(=O)[C@H](CO)NC(=O)[C@H](CO)NC(=O)[C@@H](NC(=O)[C@H](CC(=O)O)NC(=O)[C@H](CO)NC(=O)[C@@H](NC(=O)[C@H](Cc1ccccc1)NC(=O)[C@@H](NC(=O)CNC(=O)[C@H](CCC(=O)O)NC(=O)[C@H](C)NC(=O)CCc1cnc[nH]1)[C@@H](C)O)[C@@H](C)O)C(C)C)C(=O)N[C@@H](C)C(=O)N[C@@H](Cc1c[nH]c2ccccc12)C(=O)N[C@@H](CC(C)C)C(=O)N[C@H](C(=O)N[C@@H](CCCCNc1c(NCCCCCN(O)C(=O)CCC(=O)NCCCCCN(O)C(=O)CCC(=O)NCCCCCN(O)C(C)=O)c(=O)c1=O)C(=O)NCC(=O)N[C@@H](CCCNC(=N)N)C(=O)N[C@@H](CCCCNC(=O)COCCOCCNC(=O)COCCOCCNC(=O)CC[C@H](NC(=O)CCCCCCCCCCCCCCCCC(=O)O)C(=O)O)C(=O)O)C(C)C	GLP1R	cAMP reporter gene, agonist, CRE luciferase	BHK	with Zr, 0% HSA		EC50	11 pM
